Measured values of several laboratories.
Protocols differ between the studies behind these lines. ± marks the error that the study gave.

SMILES	cell line	assay	setting	how to read	measurement	result
Nc1ncc(-c2nc(N3CCOCC3)nc(N3CCOCC3)n2)c(C(F)F)n1	A-375		72 h		GI50	269 nM
Nc1ncnc2c1ncn2[C@@H]1O[C@@H]2COP(=O)(O)O[C@H]3[C@@H](O)[C@H](n4cnc5c(=O)[nH]cnc54)O[C@@H]3COP(=O)(O)O[C@H]2[C@H]1O	HFF-1	RNA sequencing, item: RHO GTPases activate CIT	downregulated pathway	baseline: Zika virus alone	pathway fold enrichment	15
COc1ccc([C@H]2c3[nH]c4ccc(Cl)cc4c3CCN2C(=O)Oc2ccc(Cl)cc2)cc1	human dermal fibroblasts with PBMC	cytokine secretion, item: sIL-2	0.01 µM, 48 h		inhibition	47%
CC(C)N1CCC(NC2CCN(c3cccc(-c4cc5cc(F)ccc5[nH]4)c3)CC2)CC1	EKVX				CC50	6460 nM
Cc1cc(C(C)(C)c2ccc(O)c(C)c2)ccc1O	HepG2 spheroids	planimetry	2.5 µM, 0 to 24 h	baseline: mean area of 72 h spheroids	spheroid area increase	122%
COc1c(C)c2c(c(O)c1C/C=C(\C)CCC(=O)O)C(=O)OC2	Connective cancer cell lines	cell proliferation			IC50	331 nM
CN1CCN(C2(CNC3CCN(c4cccc(-c5cc6cc(F)ccc6[nH]5)c4)CC3)CCC2)CC1	SK-MEL-5				GI50	1710 nM
O=C1CCP(=S)(c2ccccc2)CC1	HCT-116	ELISA	IC50, 72 h		IL-6 level	0.5 ± 0.28 pg/mL
C/C=C(/C)C(=O)O[C@H]1C(C)=C2[C@H]([C@@H]1OC(=O)CCCCCCC)[C@@](C)(OC(C)=O)C[C@H](OC(=O)CCC)[C@@]1(O)[C@H]2OC(=O)[C@@]1(C)O	HEK-293T	RNA-seq GSEA, item: Hallmark mTORC1 signaling	500 nM, 6 h	direction not given	normalized enrichment score	2.68
COc1c(CCC[P+](c2ccccc2)(c2ccccc2)c2ccccc2)cc2c(c1OC)OCO2.[I-]	MDA-MB-231	NCI60 SRB			LC50	-4.15 log M
COc1ccc2c(c1)[nH]c1c(C)nccc12	DU-145	bisulfite pyrosequencing, item: RASSF1A promoter CpG site 32	10 µM, 16 h		DNA methylation	97.5%
COc1cc(CCC[P+](c2ccccc2)(c2ccccc2)c2ccccc2)c(OC)c2c1OCO2.[I-]	HOP-62	SRB			LC50	-4.22 log M
Cn1cncc1C1=CN(c2ncnc3[nH]cnc23)CCS1	HOP-62		lung cancer		CC50	> 200000 nM
CCN(CC)c1ccc(C=NNC(=O)CSc2nc3ccccc3c(=O)n2Cc2ccc(S(N)(=O)=O)cc2)c(O)c1	HOP-92	NCI five-dose screen			CC50	> 100000 nM

Some of these lines once more:
SMILES	cell line	assay	setting	how to read	measurement	result
COc1c(C)c2c(c(O)c1C/C=C(\C)CCC(=O)O)C(=O)OC2	Connective cancer cell lines	cell proliferation			IC50	331 nM
COc1c(CCC[P+](c2ccccc2)(c2ccccc2)c2ccccc2)cc2c(c1OC)OCO2.[I-]	MDA-MB-231	NCI60 SRB			LC50	-4.15 log M
